Results pooled from the literature.
Compare with care: the assays were run in different laboratories. “And” joins repeats or separate records; there may be more than shown. ± marks the error that the study gave.
Tln2: Tln2 312-408 (Mus musculus, UniProt Q71LX4)
UniProt Q71LX4, sequence (whole entry, looked up): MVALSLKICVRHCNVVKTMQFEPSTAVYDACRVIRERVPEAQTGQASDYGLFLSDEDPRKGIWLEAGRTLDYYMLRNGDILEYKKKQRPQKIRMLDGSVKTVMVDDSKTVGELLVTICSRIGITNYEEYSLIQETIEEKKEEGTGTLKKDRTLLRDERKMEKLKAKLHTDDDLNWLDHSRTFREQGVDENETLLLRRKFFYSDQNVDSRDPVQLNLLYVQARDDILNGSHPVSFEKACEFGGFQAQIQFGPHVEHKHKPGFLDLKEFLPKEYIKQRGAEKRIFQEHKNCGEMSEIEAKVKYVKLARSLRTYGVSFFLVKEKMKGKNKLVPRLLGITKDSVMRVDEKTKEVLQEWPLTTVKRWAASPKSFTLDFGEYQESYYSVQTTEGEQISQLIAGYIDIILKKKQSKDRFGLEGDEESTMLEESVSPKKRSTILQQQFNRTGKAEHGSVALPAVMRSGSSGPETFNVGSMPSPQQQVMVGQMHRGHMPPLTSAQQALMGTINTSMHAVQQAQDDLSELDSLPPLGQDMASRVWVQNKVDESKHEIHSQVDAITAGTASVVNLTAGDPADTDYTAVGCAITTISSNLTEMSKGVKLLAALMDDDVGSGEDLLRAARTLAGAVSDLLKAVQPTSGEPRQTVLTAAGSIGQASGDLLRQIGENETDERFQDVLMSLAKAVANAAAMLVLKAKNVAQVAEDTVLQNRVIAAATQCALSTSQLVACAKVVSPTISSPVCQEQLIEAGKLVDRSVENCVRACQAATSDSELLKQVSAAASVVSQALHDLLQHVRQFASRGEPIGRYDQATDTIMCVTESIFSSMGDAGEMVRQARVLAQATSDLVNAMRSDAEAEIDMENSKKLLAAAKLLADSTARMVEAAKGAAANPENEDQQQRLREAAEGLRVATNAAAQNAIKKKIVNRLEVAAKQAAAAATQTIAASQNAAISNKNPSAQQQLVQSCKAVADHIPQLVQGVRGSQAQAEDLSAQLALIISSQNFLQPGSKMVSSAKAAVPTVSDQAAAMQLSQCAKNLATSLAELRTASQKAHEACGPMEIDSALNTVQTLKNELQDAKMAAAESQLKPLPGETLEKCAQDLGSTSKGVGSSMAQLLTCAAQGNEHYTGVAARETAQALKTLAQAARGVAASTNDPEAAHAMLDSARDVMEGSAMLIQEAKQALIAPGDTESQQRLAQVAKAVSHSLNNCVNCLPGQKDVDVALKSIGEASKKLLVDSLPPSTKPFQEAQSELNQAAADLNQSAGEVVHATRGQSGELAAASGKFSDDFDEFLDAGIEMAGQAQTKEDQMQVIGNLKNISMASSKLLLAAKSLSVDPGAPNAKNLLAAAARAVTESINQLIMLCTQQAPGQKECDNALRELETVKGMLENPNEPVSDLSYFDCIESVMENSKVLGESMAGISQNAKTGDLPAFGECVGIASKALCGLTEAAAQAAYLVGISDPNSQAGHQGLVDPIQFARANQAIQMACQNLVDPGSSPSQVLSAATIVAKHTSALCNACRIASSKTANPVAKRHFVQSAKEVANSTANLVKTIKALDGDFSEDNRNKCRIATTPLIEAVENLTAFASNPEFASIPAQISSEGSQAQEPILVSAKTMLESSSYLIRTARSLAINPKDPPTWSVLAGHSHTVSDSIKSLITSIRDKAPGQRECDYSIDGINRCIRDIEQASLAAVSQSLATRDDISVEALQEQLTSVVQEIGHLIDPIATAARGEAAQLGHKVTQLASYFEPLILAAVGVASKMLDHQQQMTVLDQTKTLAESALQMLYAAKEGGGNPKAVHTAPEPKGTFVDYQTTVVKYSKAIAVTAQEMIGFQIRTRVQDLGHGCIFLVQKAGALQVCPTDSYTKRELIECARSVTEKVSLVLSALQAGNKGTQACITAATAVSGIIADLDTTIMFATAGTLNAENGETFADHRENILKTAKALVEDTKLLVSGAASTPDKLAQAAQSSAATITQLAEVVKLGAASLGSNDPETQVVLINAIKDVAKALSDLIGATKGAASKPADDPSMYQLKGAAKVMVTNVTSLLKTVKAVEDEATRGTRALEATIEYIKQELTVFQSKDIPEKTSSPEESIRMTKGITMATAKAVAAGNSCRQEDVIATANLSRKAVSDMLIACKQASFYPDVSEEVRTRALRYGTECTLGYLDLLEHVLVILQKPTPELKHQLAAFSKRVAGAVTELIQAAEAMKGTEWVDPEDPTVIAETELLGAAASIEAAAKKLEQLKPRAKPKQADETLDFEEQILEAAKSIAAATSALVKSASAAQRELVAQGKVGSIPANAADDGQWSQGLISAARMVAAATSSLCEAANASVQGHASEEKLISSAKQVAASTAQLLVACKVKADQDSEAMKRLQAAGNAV
B1: EFR3A 721-791 (Homo sapiens, UniProt Q14156); chain SNTEEITFEALKKAIDTSGMEEQEKEKRRLVIEKFQKAPFEEIAAQCESKANLLHDRLAQILELTIRPPPS
B2: Mena EVH1 1-113 (Homo sapiens, UniProt Q8N8S7); chain MSEQSICQARAAVMVYDDANKKWVPAGGSTGFSRVHIYHHTGNNTFRVVGRKIQDHQVVINCAIPKGLKYNQATQTFHQWRDARQVYGLNFGSKEDANVFASAMMHALEVLNS
B3: designed binder (Homo sapiens); chain MASAARLTMMWEEVTCPICLDPFVEPVSIECGHSFCQECISQVGKGGGSVCPVCRQRFLLKNLRPNRQLANMVNNLKEISQEAREGTQGERCAVHGERLHLFCEKDGKALCWVCAQSRKHRDHAMVPLEEAAQEYQEKLQVALGELRRKQELAEKLEVEIAIKRADWKKTVETQKSRIHAEFVQQKNFLVEEEQRQLQELEKDEREQLRILGEKEAKLAQQSQALQELISELDRRCHSSALELLQEVIIVLERSESWNLKDLDITSPELRSVCHVPGLKKMLRTCAGGGGSGGGGSGGGGSRLDAPSTIAVYRVSYTYAIIYWYSPLAEIDGFELTYGIKDVPGDRTTIKLTEDDGHYVIRHLKPDTEYEVSLISRRGDMSSNPAKITFKTGL
B4: USP7 207-560 (Homo sapiens, UniProt Q93009); sequence looked up; chain SKKHTGYVGLKNQGATCYMNSLLQTLFFTNQLRKAVYMMPTEGDDSSKSVPLALQRVFYELQHSDKPVGTKKLTKSFGWETLDSFMQHDVQELCRVLLDNVENKMKGTCVEGTIPKLFRGKMVSYIQCKEVDYRSDRREDYYDIQLSIKGKKNIFESFVDYVAVEQLDGDNKYDAGEHGLQEAEKGVKFLTLPPVLHLQLMRFMYDPQTDQNIKINDRFEFPEQLPLDEFLQKTDPKDPANYILHAVLVHSGDNHGGHYVVYLNPKGDGKWCKFDDDVVSRCTKEEAIEHNYGGHDDDLSVRHCTNAYMLVYIRESKLSEVLQAVTDHDIPQQLVERLQEEKRIEAQKRKERQE
B5: RPRD1B (Homo sapiens, UniProt Q9NQG5); chain MSSFSESALEKKLSELSNSQQSVQTLSLWLIHHRKHAGPIVSVWHRELRKAKSNRKLTFLYLANDVIQNSKRKGPEFTREFESVLVDAFSHVAREADEGCKKPLERLLNIWQERSVYGGEFIQQLKLSMEDSKSPPPKATEEKKSLKRTFQQIQEEEDDDYPGSYSPQDPSAGPLLTEELIKALQDLENAASGDATVRQKIASLPQEVQDVSLLEKITDKEAAERLSKTVDEACLLLAEYNGRLAAELEDRRQLARMLVEYTQNQKDVLSEKEKKLEEYKQKLARVTQVRKELKSHIQSLPDLSLLPNVTGGLAPLPSAGDLFSTD
B6: VCL 1-252 (Homo sapiens, UniProt P18206); sequence looked up; chain MPVFHTRTIESILEPVAQQISHLVIMHEEGEVDGKAIPDLTAPVAAVQAAVSNLVRVGKETVQTTEDQILKRDMPPAFIKVENACTKLVQAAQMLQSDPYSVPARDYLIDGSRGILSGTSDLLLTFDEAEVRKIIRVCKGILEYLTVAEVVETMEDLVTYTKNLGPGMTKMAKMIDERQQELTHQEHRVMLVNSMNTVKELLPVLISAMKIFVTTKNSKNQGIEEALKNRNFTVEKMSAEINEIIRVLQLTS
B7: WDR77 108-207 (Homo sapiens, UniProt Q9BQA1); sequence looked up; chain LDENETLIVSKFCKYEHDDIVSTVSVLSSGTQAVSGSKDICIKVWDLAQQVVLSSYRAHAAQVTCVAASPHKDSVFLSCSEDNRILLWDTRCPKPASQIG
B8: SPTB 1898-2083 (Homo sapiens, UniProt P11277); sequence looked up; chain QLVDTADKFRFFSMARDLLSWMESIIRQIETQERPRDVSSVELLMKYHQGINAEIETRSKNFSACLELGESLLQRQHQASEEIREKLQQVMSRRKEMNEKWEARWERLRMLLEVCQFSRDASVAEAWLIAQEPYLASGDFGHTVDSVEKLIKRHEAFEKSTASWAERFAALEKPTTLELKERQIAE
B9: UPF3B (Homo sapiens, UniProt Q9BZI7); sequence looked up; chain MKEEKEHRPKEKRVTLLTPAGATGSGGGTSGDSSKGEDKQDRNKEKKEALSKVVIRRLPPTLTKEQLQEHLQPMPEHDYFEFFSNDTSLYPHMYARAYINFKNQEDIILFRDRFDGYVFLDNKGQEYPAIVEFAPFQKAAKKKTKKRDTKVGTIDDDPEYRKFLESYATDNEKMTSTPETLLEEIEAKNRELIAKKTTPLLSFLKNKQRMREEKREERRRREIERKRQREEERRKWKEEEKRKRKDIEKLKKIDRIPERDKLKDEPKIKVHRFLLQAVNQKNLLKKPEKGDEKELDKREKAKKLDKENLSDERASGQSCTLPKRSDSELKDEKPKRPEDESGRDYREREREYERDQERILRERERLKRQEEERRRQKERYEKEKTFKRKEEEMKKEKDTLRDKGKKAESTESIGSSEKTEKKEEVVKRDRIRNKDRPAMQLYQPGARSRNRLCPPDDSTKSGDSAAERKQESGISHRKEGGEE
B10: TOMM20 cytosolic domain, 62-127 (Homo sapiens, UniProt Q15388); N-terminal cysteine ATTO550 label; chain CDAEAVQKFFLEEIQLGEELLAQGEYEKGVDHLTNAIAVCGQPQQLLQVLQQTLPPPVFQMLLTKLP
UniProt Q64663, sequence (whole entry, unmodified, looked up): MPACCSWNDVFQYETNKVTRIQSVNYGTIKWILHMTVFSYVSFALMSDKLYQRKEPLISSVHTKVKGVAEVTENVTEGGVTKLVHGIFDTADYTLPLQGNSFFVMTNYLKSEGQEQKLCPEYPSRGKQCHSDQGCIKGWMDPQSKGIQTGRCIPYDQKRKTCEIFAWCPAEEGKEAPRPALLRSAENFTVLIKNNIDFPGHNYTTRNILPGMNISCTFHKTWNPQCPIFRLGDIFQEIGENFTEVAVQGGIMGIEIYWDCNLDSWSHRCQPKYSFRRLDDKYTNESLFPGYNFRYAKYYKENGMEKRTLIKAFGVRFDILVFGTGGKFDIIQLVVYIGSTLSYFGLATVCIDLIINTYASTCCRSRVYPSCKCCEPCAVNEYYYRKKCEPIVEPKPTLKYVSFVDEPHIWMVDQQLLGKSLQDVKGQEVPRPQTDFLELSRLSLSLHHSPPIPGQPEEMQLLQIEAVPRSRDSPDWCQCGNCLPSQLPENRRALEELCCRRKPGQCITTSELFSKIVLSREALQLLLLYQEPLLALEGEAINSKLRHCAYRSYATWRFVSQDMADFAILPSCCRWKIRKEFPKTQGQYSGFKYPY
UniProt P26231, sequence (whole entry, looked up): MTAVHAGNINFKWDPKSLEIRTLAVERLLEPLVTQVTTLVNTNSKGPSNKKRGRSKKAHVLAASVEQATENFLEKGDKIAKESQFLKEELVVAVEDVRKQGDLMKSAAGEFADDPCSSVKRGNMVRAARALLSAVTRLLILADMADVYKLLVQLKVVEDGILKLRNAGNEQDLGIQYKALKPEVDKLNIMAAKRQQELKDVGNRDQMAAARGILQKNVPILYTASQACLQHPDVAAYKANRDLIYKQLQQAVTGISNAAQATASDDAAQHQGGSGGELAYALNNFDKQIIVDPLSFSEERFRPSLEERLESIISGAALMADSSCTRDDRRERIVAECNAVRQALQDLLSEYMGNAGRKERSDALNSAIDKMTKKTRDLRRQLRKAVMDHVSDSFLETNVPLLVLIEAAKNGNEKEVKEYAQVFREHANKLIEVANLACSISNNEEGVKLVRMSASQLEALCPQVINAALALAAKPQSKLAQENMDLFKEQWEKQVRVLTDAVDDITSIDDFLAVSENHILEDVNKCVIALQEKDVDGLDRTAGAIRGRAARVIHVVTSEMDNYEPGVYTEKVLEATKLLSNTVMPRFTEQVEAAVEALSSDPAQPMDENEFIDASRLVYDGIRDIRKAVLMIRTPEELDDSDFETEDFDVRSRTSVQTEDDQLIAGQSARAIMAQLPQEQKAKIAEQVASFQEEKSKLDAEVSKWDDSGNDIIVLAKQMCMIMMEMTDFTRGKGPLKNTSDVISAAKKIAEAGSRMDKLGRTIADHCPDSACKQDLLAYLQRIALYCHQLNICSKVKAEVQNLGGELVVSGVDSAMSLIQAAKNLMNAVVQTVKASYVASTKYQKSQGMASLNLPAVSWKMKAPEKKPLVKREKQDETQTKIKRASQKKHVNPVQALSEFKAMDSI
UniProt Q9HAU5, sequence (whole entry, looked up): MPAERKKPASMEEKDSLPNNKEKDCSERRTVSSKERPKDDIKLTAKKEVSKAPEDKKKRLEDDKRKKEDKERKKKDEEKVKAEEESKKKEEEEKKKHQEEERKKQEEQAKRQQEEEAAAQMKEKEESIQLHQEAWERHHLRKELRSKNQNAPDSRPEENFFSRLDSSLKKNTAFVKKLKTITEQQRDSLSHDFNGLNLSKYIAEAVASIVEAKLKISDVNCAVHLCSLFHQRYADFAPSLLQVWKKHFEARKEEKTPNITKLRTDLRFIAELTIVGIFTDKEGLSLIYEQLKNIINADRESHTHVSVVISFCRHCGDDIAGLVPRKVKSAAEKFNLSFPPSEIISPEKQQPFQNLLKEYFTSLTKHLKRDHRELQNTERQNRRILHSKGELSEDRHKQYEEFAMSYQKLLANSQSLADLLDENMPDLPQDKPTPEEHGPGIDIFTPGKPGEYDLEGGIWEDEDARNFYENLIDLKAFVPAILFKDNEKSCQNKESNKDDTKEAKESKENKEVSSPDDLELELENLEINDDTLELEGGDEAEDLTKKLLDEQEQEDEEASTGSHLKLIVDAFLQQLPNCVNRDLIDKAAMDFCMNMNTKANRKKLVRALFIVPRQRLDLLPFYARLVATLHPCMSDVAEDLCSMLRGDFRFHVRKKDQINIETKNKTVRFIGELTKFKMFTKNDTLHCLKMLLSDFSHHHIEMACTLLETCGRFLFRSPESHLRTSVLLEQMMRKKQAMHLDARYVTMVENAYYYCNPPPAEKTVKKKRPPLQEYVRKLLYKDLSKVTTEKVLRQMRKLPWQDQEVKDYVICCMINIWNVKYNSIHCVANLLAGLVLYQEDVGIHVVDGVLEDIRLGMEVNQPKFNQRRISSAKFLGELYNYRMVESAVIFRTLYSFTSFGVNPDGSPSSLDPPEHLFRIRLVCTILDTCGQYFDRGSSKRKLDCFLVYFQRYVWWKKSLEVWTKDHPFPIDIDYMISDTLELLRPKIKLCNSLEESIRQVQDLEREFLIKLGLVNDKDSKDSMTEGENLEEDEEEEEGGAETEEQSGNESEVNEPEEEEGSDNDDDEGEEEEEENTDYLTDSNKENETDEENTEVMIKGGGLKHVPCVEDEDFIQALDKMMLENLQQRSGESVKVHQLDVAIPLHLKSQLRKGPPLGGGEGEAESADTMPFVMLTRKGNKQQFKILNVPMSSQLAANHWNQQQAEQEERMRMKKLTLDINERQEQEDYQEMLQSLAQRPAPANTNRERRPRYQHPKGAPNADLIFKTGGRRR

Molecule	target or system	test	system	setting	scale	measurement	value
histone H4 peptide fragment, K5ac	YEATS4 19-159 (Homo sapiens, UniProt O95619)	ITC		added: histone H3 peptide		Kd	> 1000 µM
B1 (EFR3A 721-791)	PI4KA/TTC7B/FAM126A TTC7B/FAM126A	BLI				Kd	4.3e-05 ± 1.4e-05 µM
Polymyxin B		untargeted LC-MS metabolomics, measured: N-formimino-L-glutamate	Sprague-Dawley rat, right cerebral cortex	intracerebroventricular, 0.75 mg/kg, 1 h	reference: NaCl control	log2 fold change	-3.5
B2 (Mena EVH1 1-113)	PTP1B (Homo sapiens)	ITC				Kd	20.2 µM
caspofungin			adult ICU patients, mITT, serum	dose not given, day 4		bilirubin	17.6 µmol/L
GCVRLHESCLGQQVPCCDPAATCYCYGRGDNDLRCYCR (designed binder)	ITGA2B/ITGB3 K562 cells	flow cytometry	designed binder, U87MG			Kd	> 0.1 µM
TIMP2 N-terminal domain	MMP12 catalytic domain 106-263 A252Q/T215V/A173P/A167E/V161I/M156E/Y132K/Y113D (Homo sapiens, UniProt P39900)	BLI				Kd	0.29 µM
ALB (Homo sapiens, UniProt P02768)	ZFP69B (Homo sapiens, UniProt Q9UJL9)	cross-linking MS		added: DSSO		cross-linked residues	K298 to K191
B3 (designed binder)	MALT1 (Homo sapiens, UniProt Q9UDY8)	BLI	designed binder			Kd	0.619 ± 0.0091 µM
BzATP	P2X purinoceptor 7 (P2rx7, Rattus norvegicus, UniProt Q64663, I214A/Q143A)	ion current, agonist, two-electrode voltage clamp	Xenopus oocytes	3.7 µM		normalized current	0 and 0.01
B4 (USP7 207-560)	ubiquitin, 15N-labelled (UniProt P0CG48)	NMR titration				Kd	204 ± 22 µM
FFFTYK (designed peptide; FITC label)	NHERF2 142-254 (Homo sapiens, UniProt Q15599-1)	fluorescence intensity change, fluorescence titration	peptide			Kd	> 1000 µM
11-deoxycorticosterone	CYP11B2 (human)	substrate binding, stopped-flow global kinetic fitting	purified enzyme	3-state conformational selection model, added: 10-fold excess adrenodoxin		rate constant k-1	1.79 ± 0.0977 s⁻¹
KLLMIIHDRREFAKFEKEKMNAKWDTGENPIYKSPINNFKNPNYGRKAGL (ITGB1 752-801 Q778G (Homo sapiens, UniProt P05556-5); sequence looked up)	Tln2	NMR titration				Kd	97 µM
B5 (RPRD1B)	RPAP2 (Homo sapiens, UniProt Q8IXW5)	ITC		25 °C		Kd	478 µM
DHEYVLTESFLDSGAFPNHDVIDHNKMLNSNYNGNGILNKGGVLGLVKEYYKKSDVGR (ATG9 940-997 (Saccharomyces cerevisiae, UniProt Q12142); sequence looked up)	ATG23 full-length, dimer (Saccharomyces cerevisiae, UniProt Q06671)	BLI				Kd	0.37 µM
FNA / CGLSGLGVA-NH2 ([18F]FNA-labelled, C-amide)		ex vivo gamma counting	peptide, glioblastoma mouse model, spleen	60 min post injection, added: 500-fold excess CooP blocking		tissue uptake	0.37 %ID/g

Molecule	target or system	test	system	setting	scale	measurement	value
B6 (VCL 1-252)	Ctnna1 (Mus musculus, UniProt P26231)	BLI				Kd	1.7 µM and 1.8 µM
PRTARHAPAVRKFSPDLKLLKDVKISVSFTE (DGCR8(96-126), SUMO-tagged)	Enhancer of rudimentary homolog (Homo sapiens, UniProt P84090, M35A)	DGCR8 peptide binding, ITC	peptide	293 K		ΔH	-2.39 ± 0.208 kcal/mol
B7 (WDR77 108-207)	AR (Homo sapiens, UniProt P10275)	BLI		in vitro		Kd	0.000153 µM
KLLMIIHDRREFAKFEKEKMNAKWDTGENPIYKSAVTTVVNPKYEGK (ITGB1 752-798 (Homo sapiens, UniProt P05556-1); sequence looked up)	Tln2	NMR titration				Kd	652 µM
B8 (SPTB 1898-2083)	SPTAN1 1-359 (Homo sapiens, UniProt Q13813)	ITC		pH 7.4, NaCl 150 mM		Kd	0.0069 µM
CDH23 EC1-2 (Anolis carolinensis)	PCDH15 EC1-2 (Anolis carolinensis)	SPR				Kd	2.3 ± 1 µM
FGA (Homo sapiens, UniProt P02671)	CASP10 (Homo sapiens, UniProt Q92851)	cross-linking MS		added: DSSO		cross-linked residues	K440 to K479
WGSGGVEPQKFAEEPIHRLEAVQRTREAEEKLEERLKRVRMEEEGEDGDPSSGPPGPC (AXIN1 383-435 L392P (Homo sapiens); HiLyte488 label)	Gsk3b 26-383 (Mus musculus, UniProt Q9WV60)	fluorescence polarisation				Kd	> 5 µM
EAADQEEDQDDFVYPGAD (upa1 237-254 (Ustilago maydis, UniProt A0A0D1E015); sequence looked up)	rrm4 679-792 (Ustilago maydis, UniProt A0A0D1DWZ5)	ITC	peptide			Kd	15.7 µM
HTN1 fragment alanine substitutions at 12-14	TMEM97 (Homo sapiens, UniProt Q5BJF2)	SPR				Kd	10.1 µM
Peginesatide	UT7/EPO	tyrosine phosphorylation, LC-MS/MS phosphoproteomics, GluC, measured: STAT5A tyrosine 694		10 nM, 15 min, added: 10 U/mL EPO	reference: vehicle	phosphorylation level	88.3 fold
B9 (UPF3B)	UPF2 (Homo sapiens, UniProt Q9HAU5)	BLI				Kd	0.0207 µM
DTTPTVAGQFEDADVDH (CLNS1A residues 221-237; N-terminal acetyl)	PRMT5/WDR77 full length, hetero-octamer (Homo sapiens)	SPR	peptide			Kd	2.5 µM
TLN1 head domain	ITGB3 residues 720-750, FAM label	fluorescence polarization				Kd	10 µM
B10	Fem1b (Mus musculus, UniProt Q9Z2G0)	fluorescence polarisation				Kd	0.12 µM
colistin	Pseudomonas aeruginosa	broth microdilution	clinical isolate RKI-No_253/15			MIC	1 µg/mL

For quick reference, copied from above:
Molecule	target or system	test	system	setting	scale	measurement	value
TIMP2 N-terminal domain	MMP12 catalytic domain 106-263 A252Q/T215V/A173P/A167E/V161I/M156E/Y132K/Y113D (Homo sapiens, UniProt P39900)	BLI				Kd	0.29 µM
B6 (VCL 1-252)	Ctnna1 (Mus musculus, UniProt P26231)	BLI				Kd	1.7 µM and 1.8 µM
caspofungin			adult ICU patients, mITT, serum	dose not given, day 4		bilirubin	17.6 µmol/L
